Assay results from different studies.
Numbered parts are unrelated; each lists some results of a single study.
UniProt Q13976, sequence (whole entry, looked up): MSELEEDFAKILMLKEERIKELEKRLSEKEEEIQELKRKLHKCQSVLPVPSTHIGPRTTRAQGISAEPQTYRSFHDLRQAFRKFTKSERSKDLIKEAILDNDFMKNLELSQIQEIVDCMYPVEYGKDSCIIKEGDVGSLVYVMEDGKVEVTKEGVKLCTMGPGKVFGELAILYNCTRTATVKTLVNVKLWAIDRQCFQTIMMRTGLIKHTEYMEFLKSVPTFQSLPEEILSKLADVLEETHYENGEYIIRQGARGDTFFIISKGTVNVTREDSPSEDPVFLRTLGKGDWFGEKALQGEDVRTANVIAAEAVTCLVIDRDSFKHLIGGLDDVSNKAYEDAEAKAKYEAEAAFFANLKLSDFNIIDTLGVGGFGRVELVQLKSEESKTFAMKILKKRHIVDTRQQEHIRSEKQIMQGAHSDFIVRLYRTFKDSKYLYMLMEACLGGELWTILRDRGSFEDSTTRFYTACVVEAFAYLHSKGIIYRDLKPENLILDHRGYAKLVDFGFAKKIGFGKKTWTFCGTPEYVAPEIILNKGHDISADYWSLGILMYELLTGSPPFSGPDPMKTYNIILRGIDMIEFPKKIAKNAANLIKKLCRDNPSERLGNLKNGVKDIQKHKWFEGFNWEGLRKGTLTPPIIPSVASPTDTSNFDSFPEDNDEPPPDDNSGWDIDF
UniProt O43283, sequence (whole entry, looked up): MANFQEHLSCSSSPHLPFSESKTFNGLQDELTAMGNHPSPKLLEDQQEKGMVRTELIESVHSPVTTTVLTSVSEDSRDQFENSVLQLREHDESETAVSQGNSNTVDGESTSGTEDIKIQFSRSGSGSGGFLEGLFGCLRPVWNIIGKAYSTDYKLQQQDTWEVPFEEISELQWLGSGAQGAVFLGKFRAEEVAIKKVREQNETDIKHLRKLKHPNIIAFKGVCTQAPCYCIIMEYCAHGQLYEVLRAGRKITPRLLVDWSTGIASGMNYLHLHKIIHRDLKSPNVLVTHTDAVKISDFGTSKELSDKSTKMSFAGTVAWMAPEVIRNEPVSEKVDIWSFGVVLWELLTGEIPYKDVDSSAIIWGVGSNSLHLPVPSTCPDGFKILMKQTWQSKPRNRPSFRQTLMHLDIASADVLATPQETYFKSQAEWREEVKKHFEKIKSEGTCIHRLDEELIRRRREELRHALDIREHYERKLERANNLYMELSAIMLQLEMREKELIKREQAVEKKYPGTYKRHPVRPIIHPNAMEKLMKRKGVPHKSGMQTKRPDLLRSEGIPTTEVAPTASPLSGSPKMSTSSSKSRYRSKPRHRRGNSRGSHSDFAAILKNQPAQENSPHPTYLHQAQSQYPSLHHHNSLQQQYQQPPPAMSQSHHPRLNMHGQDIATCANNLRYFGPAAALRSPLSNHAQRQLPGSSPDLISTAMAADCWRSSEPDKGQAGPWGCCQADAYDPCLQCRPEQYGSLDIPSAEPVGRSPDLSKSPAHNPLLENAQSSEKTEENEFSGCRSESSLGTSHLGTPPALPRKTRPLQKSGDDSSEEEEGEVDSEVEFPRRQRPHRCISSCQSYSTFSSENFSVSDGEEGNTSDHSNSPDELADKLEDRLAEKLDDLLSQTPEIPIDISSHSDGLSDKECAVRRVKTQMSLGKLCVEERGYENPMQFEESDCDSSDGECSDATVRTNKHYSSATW
UniProt Q99759, sequence (whole entry, looked up): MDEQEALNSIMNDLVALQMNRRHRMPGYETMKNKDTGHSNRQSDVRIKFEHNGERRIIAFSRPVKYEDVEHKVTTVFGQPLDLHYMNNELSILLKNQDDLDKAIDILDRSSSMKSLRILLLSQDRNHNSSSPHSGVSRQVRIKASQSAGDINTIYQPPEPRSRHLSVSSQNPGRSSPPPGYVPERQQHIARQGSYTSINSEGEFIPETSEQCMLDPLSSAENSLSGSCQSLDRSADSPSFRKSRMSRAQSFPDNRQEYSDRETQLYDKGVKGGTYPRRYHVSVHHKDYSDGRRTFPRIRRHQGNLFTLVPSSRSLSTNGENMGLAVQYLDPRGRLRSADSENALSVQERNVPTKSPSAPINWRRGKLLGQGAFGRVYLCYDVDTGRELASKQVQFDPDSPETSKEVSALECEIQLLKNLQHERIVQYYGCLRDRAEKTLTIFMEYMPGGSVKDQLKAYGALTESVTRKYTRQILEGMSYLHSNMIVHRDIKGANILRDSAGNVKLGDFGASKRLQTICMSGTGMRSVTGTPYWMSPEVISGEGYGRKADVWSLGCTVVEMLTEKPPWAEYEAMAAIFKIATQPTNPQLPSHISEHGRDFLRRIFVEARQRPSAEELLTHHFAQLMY
UniProt O94804, sequence (whole entry, looked up): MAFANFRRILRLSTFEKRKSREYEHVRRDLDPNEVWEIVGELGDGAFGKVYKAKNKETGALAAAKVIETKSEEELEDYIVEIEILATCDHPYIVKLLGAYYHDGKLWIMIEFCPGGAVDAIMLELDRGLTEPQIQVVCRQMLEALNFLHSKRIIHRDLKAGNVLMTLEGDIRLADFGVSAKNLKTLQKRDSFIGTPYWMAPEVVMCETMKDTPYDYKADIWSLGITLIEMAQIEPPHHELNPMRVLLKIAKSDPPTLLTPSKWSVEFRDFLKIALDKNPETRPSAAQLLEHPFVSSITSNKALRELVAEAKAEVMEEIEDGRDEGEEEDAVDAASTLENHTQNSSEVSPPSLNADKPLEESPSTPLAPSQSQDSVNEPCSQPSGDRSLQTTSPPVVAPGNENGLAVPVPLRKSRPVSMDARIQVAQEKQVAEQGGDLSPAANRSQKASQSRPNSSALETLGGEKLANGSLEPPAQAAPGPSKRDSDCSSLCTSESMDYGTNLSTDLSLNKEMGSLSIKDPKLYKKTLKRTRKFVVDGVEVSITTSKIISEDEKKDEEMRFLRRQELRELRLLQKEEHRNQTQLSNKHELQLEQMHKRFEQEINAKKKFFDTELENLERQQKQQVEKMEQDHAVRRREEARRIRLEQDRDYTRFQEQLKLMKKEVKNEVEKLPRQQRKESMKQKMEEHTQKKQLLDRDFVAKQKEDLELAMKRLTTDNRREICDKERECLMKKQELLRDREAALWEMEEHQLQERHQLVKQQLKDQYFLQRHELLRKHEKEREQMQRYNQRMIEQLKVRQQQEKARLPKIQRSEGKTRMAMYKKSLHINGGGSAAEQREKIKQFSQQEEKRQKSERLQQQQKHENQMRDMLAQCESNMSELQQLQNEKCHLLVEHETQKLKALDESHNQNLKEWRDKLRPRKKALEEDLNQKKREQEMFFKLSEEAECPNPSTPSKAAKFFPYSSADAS
UniProt Q14164, sequence (whole entry, looked up): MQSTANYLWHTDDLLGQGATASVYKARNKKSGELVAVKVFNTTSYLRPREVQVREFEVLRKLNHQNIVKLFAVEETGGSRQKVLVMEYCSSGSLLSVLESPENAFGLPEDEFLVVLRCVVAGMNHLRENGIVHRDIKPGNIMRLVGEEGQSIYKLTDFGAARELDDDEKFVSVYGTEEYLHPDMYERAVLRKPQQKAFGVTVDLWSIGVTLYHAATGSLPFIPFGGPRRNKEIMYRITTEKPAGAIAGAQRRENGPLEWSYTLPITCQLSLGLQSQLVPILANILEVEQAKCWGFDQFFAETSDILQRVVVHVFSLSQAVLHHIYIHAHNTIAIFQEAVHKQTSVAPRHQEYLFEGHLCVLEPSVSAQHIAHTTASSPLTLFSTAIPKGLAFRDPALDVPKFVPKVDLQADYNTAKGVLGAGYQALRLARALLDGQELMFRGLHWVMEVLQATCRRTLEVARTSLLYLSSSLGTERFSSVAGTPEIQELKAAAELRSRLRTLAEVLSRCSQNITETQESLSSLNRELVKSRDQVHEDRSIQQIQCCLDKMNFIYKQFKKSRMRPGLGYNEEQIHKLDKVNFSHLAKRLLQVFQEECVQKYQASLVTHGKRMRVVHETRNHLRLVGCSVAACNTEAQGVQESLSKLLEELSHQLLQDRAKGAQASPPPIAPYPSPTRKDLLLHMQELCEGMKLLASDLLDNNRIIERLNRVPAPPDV
UniProt Q9BVS4, sequence (whole entry, looked up): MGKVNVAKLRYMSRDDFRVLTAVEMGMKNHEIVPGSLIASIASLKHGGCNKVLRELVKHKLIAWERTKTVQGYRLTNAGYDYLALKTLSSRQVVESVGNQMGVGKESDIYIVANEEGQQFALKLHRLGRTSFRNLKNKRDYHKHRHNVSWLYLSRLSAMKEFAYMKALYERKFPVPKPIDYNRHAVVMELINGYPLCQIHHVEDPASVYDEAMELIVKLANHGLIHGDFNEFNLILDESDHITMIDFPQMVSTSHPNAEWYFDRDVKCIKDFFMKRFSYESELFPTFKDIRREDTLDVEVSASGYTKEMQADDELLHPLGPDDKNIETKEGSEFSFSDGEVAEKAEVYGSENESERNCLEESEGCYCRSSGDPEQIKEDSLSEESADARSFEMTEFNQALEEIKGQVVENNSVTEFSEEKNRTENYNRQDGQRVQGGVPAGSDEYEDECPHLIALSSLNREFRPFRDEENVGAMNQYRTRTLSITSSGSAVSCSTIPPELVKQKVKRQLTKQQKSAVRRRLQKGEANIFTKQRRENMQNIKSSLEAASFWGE
UniProt Q00535, sequence (whole entry, looked up): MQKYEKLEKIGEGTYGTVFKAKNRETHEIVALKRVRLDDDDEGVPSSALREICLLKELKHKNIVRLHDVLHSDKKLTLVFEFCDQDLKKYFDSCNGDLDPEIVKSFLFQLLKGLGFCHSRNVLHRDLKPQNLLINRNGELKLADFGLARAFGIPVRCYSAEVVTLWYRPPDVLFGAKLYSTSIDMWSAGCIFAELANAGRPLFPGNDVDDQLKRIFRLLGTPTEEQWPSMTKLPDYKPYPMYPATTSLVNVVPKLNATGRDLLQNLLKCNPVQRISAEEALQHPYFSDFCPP

Sample 1
Structure (SMILES): C[C@@H]1CN(c2cc(-c3n[nH]c4ccc(OC5(C)CC5)cc34)ncn2)C[C@H](C)O1
Method: competition with immobilised ligand
| target | test | setting | remaining binding [%] |
| --- | --- | --- | --- |
| Cyclin-dependent kinase-like 2 (CDKL2, Homo sapiens, UniProt Q92772) | cell-free assay | 0.1 µM | 100 |
| G protein-coupled receptor kinase 4 (GRK4, Homo sapiens, UniProt P32298) | cell-free assay | 0.1 µM | 100 |
| Serine/threonine-protein kinase RIO2 (RIOK2, Homo sapiens, UniProt Q9BVS4) | cell-free assay | 0.1 µM | 68 |
| Hepatocyte growth factor receptor (MET, Homo sapiens, UniProt P08581, M1250T) | cell-free assay | 0.1 µM | 79 |
| Mitogen-activated protein kinase kinase kinase 13 (MAP3K13, Homo sapiens, UniProt O43283) | binding | 1 µM | 0 |
| Cyclin-dependent kinase 4, with cyclin D3 (CDK4, Homo sapiens, UniProt P11802) | cell-free assay | 0.1 µM | 68 |
| cGMP-dependent protein kinase 1 (PRKG1, Homo sapiens, UniProt Q13976) | cell-free assay | 0.1 µM | 100 |

Sample 2
Structure (SMILES): CC(C)n1cnc(-c2ccc(F)cc2)c1-c1ncc(C(=O)Nc2ccc(N3CCN(C)CC3)cc2)[nH]1
Method: Phase 2a trial
Host: idiopathic pulmonary fibrosis patients
| test | setting | patients with adverse events |
| --- | --- | --- |
| refers to: tri-iodothyronine increased | dose not given, grade 3 maximum intensity, all arms | 0% |
| refers to: muscular weakness | 60 mg once daily, grade 5 maximum intensity | 0% |
| refers to: blood alkaline phosphatase increased | 60 mg once daily, grade 4 maximum intensity | 0% |
| refers to: bile acids increased | 60 mg once daily, grade 5 maximum intensity | 0% |
| refers to: eye disorders (SOC) | 60 mg once daily, grade 5 maximum intensity | 0% |

Sample 3
SMILES: COc1ccc(-c2c(Nc3ccccn3)[nH]c3c(C4=CCCCC4)c(-c4ccccc4)nn3c2=O)cc1
Method: LC-MS/MS
Host: human cancer patients
Sample: plasma
| test | setting | plasma concentration [ng/mL] |
| --- | --- | --- |
| refers to: methionine | 200 mg BID, 2 h, mean, cycle 1 day 200 | 74500 |
| refers to: methionine | QD, dose not given, 2 h, mean, cycle 1 day 50 | 70700 |
| refers to: S-adenosylmethionine | 50 mg QD, 8 h, mean, cycle 1 day 50 | 25.7 |
| refers to: methionine | 200 mg BID, 4 h, mean, cycle 1 day 200 | 76000 |

Sample 4
SMILES: O=C(O)c1ccc2c3c1cccc3c(=O)n1c3ccccc3nc21
Effect on: enzyme activity
Mode: inhibitor
Concentration: 0.5 µM
Baseline: control
| target | remaining activity [%] |
| --- | --- |
| Mitogen-activated protein kinase kinase kinase 3 (MAP3K3, Homo sapiens, UniProt Q99759) | 81 |
| Serine/threonine-protein kinase OSR1 (OXSR1, Homo sapiens, UniProt O95747) | 104 |
| Death-associated protein kinase 2 (DAPK2, Homo sapiens, UniProt Q9UIK4) | 91.9 |
| Serine/threonine-protein kinase 10 (STK10, Homo sapiens, UniProt O94804) | 88.6 |
| STE20/SPS1-related proline-alanine-rich protein kinase (STK39, Homo sapiens, UniProt Q9UEW8) | 102 |
| G protein-coupled receptor kinase 3 (GRK3, Homo sapiens, UniProt P35626) | 103 |
| TGF-beta receptor type-2 (TGFBR2, Homo sapiens, UniProt P37173) | 133 |
| TGF-beta receptor type-1 (TGFBR1, Homo sapiens, UniProt P36897) | 99.4 |
| Inhibitor of nuclear factor kappa-B kinase subunit epsilon (IKBKE, Homo sapiens, UniProt Q14164) | 57.3 |
| Mitogen-activated protein kinase 9 (MAPK9, Homo sapiens, UniProt P45984) | 97.5 |
| Cyclin-dependent kinase 5, with p25 (CDK5, Homo sapiens, UniProt Q00535) | 80.6 |
| Death-associated protein kinase 1 (DAPK1, Homo sapiens, UniProt P53355) | 40.9 |

For quick reference, copied from above (sample 2):
| test | setting | patients with adverse events |
| --- | --- | --- |
| refers to: blood alkaline phosphatase increased | 60 mg once daily, grade 4 maximum intensity | 0% |
| refers to: bile acids increased | 60 mg once daily, grade 5 maximum intensity | 0% |
